Measurements from different studies.
Compare with care: the assays were run in different laboratories. Numbers after ± are the reported error.

Compound	assay	test system	setting	scale	quantity	value
CC(NC(C)(C)C)C(=O)c1cccc(Cl)c1 (stereo not shown)	nicotine-induced antinociception, antagonist, tail-flick test	mice	with: nicotine 2.5 mg/kg sc		AD50	1.2 mg/kg
O=S(=O)(F)Cc1ccccc1	bait peptide cleavage, inhibitor, MALDI-TOF/TOF	Glycine max xylem sap	1 mM, 2 h, 4 °C		protease cleavage	inhibited
c1ccc(-c2ncc3cc(-n4ccnc4)ccc3n2)cc1	ED50 in combination, isobologram	rat, capsaicin hyperalgesia	dose not given, with: morphine		dose reduction factor	~4 fold
Cc1sc2c(c1C)C(c1ccc(Cl)cc1)=N[C@@H](CC(=O)OC(C)(C)C)c1nnc(C)n1-2		mice, HD-MB03 intracranial xenograft	intraperitoneal, 50 mg/kg daily, with: ribociclib 100 mg/kg oral daily		median survival	21 days
NCC(=O)Nc1cncc(-c2nn3c(=O)cc(N4CCNCC4)nc3s2)c1	platelet function, VerifyNow iso-TRAP	STEMI patients	subcutaneous, 0.09 mg/kg		time to 50% inhibition	104 min
COc1cc2ncnc(Nc3ccc(F)c(Cl)c3)c2cc1NC(=O)/C=C/CN1CCCCC1	immunohistochemistry	human, skin biopsy	dose not given, cycle 1 day 14, increased dose, steady state	relative to: baseline	Ki67 level	decreased
CN[C@H](CC(C)C)C(=O)N[C@H]1C(=O)N[C@@H](CC(N)=O)C(=O)N[C@H]2C(=O)N[C@H]3C(=O)N[C@H](C(=O)N[C@H](C(=O)O)c4cc(O)cc(O)c4-c4cc3ccc4O)[C@H](O)c3ccc(c(Cl)c3)Oc3cc2cc(c3O[C@@H]2O[C@H](CO)[C@@H](O)[C@H](O)[C@H]2O[C@H]2C[C@](C)(N)[C@H](O)[C@H](C)O2)Oc2ccc(cc2Cl)[C@H]1O		Japanese patients with SSTI	intravenous, 1 g twice daily, 7 to 14 days, test-of-cure, MITT-MRSA		microbiological success	47.4%
C(#Cc1cc(C#CCCC[n+]2cccc(-c3ccccc3)c2)c(C#CCCC[n+]2cccc(-c3ccccc3)c2)cc1C#CCCC[n+]1cccc(-c2ccccc2)c1)CCC[n+]1cccc(-c2ccccc2)c1.[Br-].[Br-].[Br-].[Br-]	paw pressure test	rat, sham-operated paw	intraperitoneal, 3600 µg/kg, peak effect		vocalization threshold	250 ± 9.69 g
Cc1cc(O)cc(C)c1C[C@H](N)C(=O)N[C@@H]1CCCc2ccc(Cc3cccc4ccccc34)cc21	warm water tail withdrawal	C57BL/6 mice	intraperitoneal, up to 10 mg/kg cumulative		antinociception	inactive
CC(C)(NC(=O)O[C@@H]1CN2CCC1CC2)c1csc(-c2ccc(F)cc2)n1	MRI	GD3 adults, whole brain	dose not given, 1 year	relative to: baseline	change in brain volume	307 ± 4250 mm³
CC[C@H](CC[C@@H](C)[C@H]1CC[C@H]2[C@@H]3CC=C4C[C@@H](O[C@@H]5O[C@H](CO)[C@@H](O)[C@H](O)[C@H]5O)CC[C@]4(C)[C@H]3CC[C@]12C)C(C)C	ABTS scavenging, absorbance		15 min		IC50	97 µM
C[C@@H]1NC(C)(C)CO[C@@]1(O)c1cccc(Br)c1	nicotine antinociception blockade, antagonist, tail-flick test	mouse	15 min pretreatment, with: nicotine 2.5 mg/kg subcutaneous		AD50	0.16 mg/kg
CC[C@H](C)[C@@H]([C@@H](CC(=O)N1CCC[C@H]1[C@H](OC)[C@@H](C)C(=O)N[C@H](C)[C@@H](O)c1ccccc1)OC)N(C)C(=O)[C@@H](NC(=O)[C@@H](NC)C(C)C)C(C)C		MDA-MB-231, mice, orthotopic xenograft	0.2 mg/kg, 4 doses, time all animals sacrificed		survival time	≤ 19 days after therapy
Oc1cc2c(cc1O)C(c1ccccc1)CNCC2 (stereo not shown)	cocaine-appropriate responding, drug discrimination	male rats trained on cocaine	intraperitoneal, LMS, with: cocaine 10 mg/kg training dose		dose for full substitution	40 mg/kg
COc1ncc(-c2nc(C(=O)NC(=N)N)c(N)nc2N2CCCCCC2)cn1		Sprague-Dawley rat, urine	iv, 1.5 mg/kg, 6 h, with: acetazolamide 25 mg/kg	relative to: acetazolamide alone	sodium excretion	no effect
CC(C)(O)c1coc(S(=O)(=O)NC(=O)Nc2c3c(cc4c2CCC4)CCC3)c1		C57BL/6 mouse, EAE model	dose not given, day 22		IFN-γ and IL-17 producing T cells	decreased

For quick reference, copied from above:
Compound	assay	test system	setting	scale	quantity	value
Cc1cc(O)cc(C)c1C[C@H](N)C(=O)N[C@@H]1CCCc2ccc(Cc3cccc4ccccc34)cc21	warm water tail withdrawal	C57BL/6 mice	intraperitoneal, up to 10 mg/kg cumulative		antinociception	inactive
C(#Cc1cc(C#CCCC[n+]2cccc(-c3ccccc3)c2)c(C#CCCC[n+]2cccc(-c3ccccc3)c2)cc1C#CCCC[n+]1cccc(-c2ccccc2)c1)CCC[n+]1cccc(-c2ccccc2)c1.[Br-].[Br-].[Br-].[Br-]	paw pressure test	rat, sham-operated paw	intraperitoneal, 3600 µg/kg, peak effect		vocalization threshold	250 ± 9.69 g
